Results gathered from unrelated publications.
Each numbered part is a random draw from the data of one study; scales do not carry over between parts. Positions count from the first letter of the parent shown.

Study 1
Target: ABI1, truncated, D143A, DHFR fusion (Arabidopsis thaliana)
Technique: DHFR PCA, deep sequencing
Matrix: yeast
Notes: methotrexate growth selection, single substitutions
Together with: (+)-ABA 4.8 µM
Relative to: wild-type fitted maximum
Direction: higher = stronger binding
Starting sequence: PYL1, truncated, DHFR fusion (Arabidopsis thaliana); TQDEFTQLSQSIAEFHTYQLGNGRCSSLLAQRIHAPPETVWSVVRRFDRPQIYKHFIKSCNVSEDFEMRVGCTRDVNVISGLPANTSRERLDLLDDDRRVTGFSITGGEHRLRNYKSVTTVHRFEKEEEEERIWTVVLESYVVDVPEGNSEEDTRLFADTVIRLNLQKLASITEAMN
`H110A`: “relative binding score” 5.53%.
Under “relative binding score”, `R99C` is recorded as 61.7%.
`D65L`: “relative binding score” 32.1%.
`D75V` — result for “relative binding score”: 85.4%.
`D95F` — result for “relative binding score”: -2.94%.
Under “relative binding score”, `T17R` is recorded as 43.6%.
For `V121L`, “relative binding score” read 47.5%.
`F5E` — result for “relative binding score”: 56.5%.
Under “relative binding score”, `R49Y` is recorded as 34.1%.
Under “relative binding score”, `V143L` is recorded as 6.11%.
`P50C` — result for “relative binding score”: -8.94%.
`T6G`: “relative binding score” 77.1%.
For `E128A`, “relative binding score” read 74%.
`V44G`: “relative binding score” 4.28%.

Study 2
Target: Interferon regulatory factor 3, full length, phosphomimetic (IRF3, Homo sapiens, UniProt Q14653, residues 1-427, S386D/S396D/S398D/S402D/T404D/S405D)
Technique: protein-binding microarray
Form: double-stranded DNA, one strand shown
Matrix: in vitro
Tested at: 2540 nM top
Notes: 60-bp whole probe
Together with: salmon DNA 0.4 mg/ml
Relative to: random background probes
Direction: higher = stronger binding
Shared flanks, not repeated: GCCTAGCAC … GTCTTGATTCGCTTGACGCTGCTG
Target sequence (chain): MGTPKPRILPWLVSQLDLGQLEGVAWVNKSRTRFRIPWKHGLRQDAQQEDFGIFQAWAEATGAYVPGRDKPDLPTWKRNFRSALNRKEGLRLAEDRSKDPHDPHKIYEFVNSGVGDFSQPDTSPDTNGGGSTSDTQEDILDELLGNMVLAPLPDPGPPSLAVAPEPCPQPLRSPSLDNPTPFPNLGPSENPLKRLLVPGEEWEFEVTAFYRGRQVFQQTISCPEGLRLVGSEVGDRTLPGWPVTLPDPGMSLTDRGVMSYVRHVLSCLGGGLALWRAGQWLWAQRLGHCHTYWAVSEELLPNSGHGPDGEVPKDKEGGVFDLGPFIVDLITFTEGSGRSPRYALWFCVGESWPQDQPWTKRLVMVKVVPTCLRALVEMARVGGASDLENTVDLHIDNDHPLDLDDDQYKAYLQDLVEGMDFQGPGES
`TCCATTTCTGTTTTTGCTTTGTGCTAG` — result for “fitted relative affinity”: 3.9 z-score.
Under “fitted relative affinity”, `GACGGTCTCCTTATCGTGACGTGCTAG` is recorded as 3.22 z-score.
`TTAGATATAGGGACTGGATTAGTGCTA`: “fitted relative affinity” -0.538 z-score.
`TTAGGACTGGACACTGGGGTAGTGCTA`: “fitted relative affinity” -0.864 z-score.
`GACGATCCCAGACTGGAGACGTGCTAG` — result for “fitted relative affinity”: 0.192 z-score.
Under “fitted relative affinity”, `TTAGATCTCCGTTTCGATTAGTGCTAG` is recorded as 3.52 z-score.
For `GACGAGATCGGGACTGGAGACGTGCTA`, “fitted relative affinity” read -0.0994 z-score.
`GACGGTTTCGACTATAGGGACGTGCTA` — result for “fitted relative affinity”: 2.83 z-score.
`GACAGTCTCGGTCTCGGGACGTGCTAG` — result for “fitted relative affinity”: 1.21 z-score.
Under “fitted relative affinity”, `TTAGGTTTCGGGACTGGGGTAGTGCTA` is recorded as 3.9 z-score.
`TCAAGGCCAGGGTTTCTGTTGTGCTAG`: “fitted relative affinity” -0.293 z-score.
`TGGCTTTGCCTTTTGCTTTAGTGCTAG` — result for “fitted relative affinity”: -0.0946 z-score.
Under “fitted relative affinity”, `GACGGACTGTGGTATCGGGACGTGCTA` is recorded as -0.101 z-score.
For `TCATCTGTGCCTTTTTTACTGTGCTAG`, “fitted relative affinity” read 1.45 z-score.
`TCAATTTTCATTATTGCACTGTGCTAG` — result for “fitted relative affinity”: 1.7 z-score.
For `GACGGACTGGGTTTCTGGACGTGCTAG`, “fitted relative affinity” read -0.116 z-score.
For `GACGATAGCGGGTATCGAGACGTGCTA`, “fitted relative affinity” read -0.549 z-score.
Under “fitted relative affinity”, `TTAGTTCTCAGTTTCGATTAGTGCTAG` is recorded as 4.19 z-score.
For `TTAGAACTGAGTCTCGGTTAGTGCTAG`, “fitted relative affinity” read -0.319 z-score.

Study 3
Target: CCNE1, cyclin fold, Cln2 fusion (human)
Technique: yeast growth competition, sequencing
Matrix: yeast
Notes: strong parent motif
Relative to: not given
Direction: higher = stronger binding
Starting sequence: PKMYT1 docking peptide (human); SFEPRNLLSLFED; partner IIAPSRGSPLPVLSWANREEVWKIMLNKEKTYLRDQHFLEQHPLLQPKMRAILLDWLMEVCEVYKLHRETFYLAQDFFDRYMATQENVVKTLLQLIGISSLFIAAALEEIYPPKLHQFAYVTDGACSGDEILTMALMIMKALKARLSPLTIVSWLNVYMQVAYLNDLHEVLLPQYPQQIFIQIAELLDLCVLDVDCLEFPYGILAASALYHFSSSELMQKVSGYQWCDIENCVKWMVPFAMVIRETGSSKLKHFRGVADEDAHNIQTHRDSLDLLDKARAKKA
Under “normalised enrichment score”, `N6P` is recorded as 1.06.
Under “normalised enrichment score”, `S1K` is recorded as 0.676.
For `S9T`, “normalised enrichment score” read 1.44.
`E3W` — result for “normalised enrichment score”: 1.24.
`D13H`: “normalised enrichment score” 1.04.
For `L10W`, “normalised enrichment score” read 2.57.
`F2V`: “normalised enrichment score” 0.631.
Under “normalised enrichment score”, `N6A` is recorded as 1.15.
`F11S`: “normalised enrichment score” 0.773.
`L8P` — result for “normalised enrichment score”: 0.0723.
`F11K`: “normalised enrichment score” 0.533.
For `L8A`, “normalised enrichment score” read 1.29.
`F11A` — result for “normalised enrichment score”: 0.633.
`F2H` — result for “normalised enrichment score”: 0.0352.
`P4Q`: “normalised enrichment score” 1.28.
`L10K`: “normalised enrichment score” -0.0356.
`E3C`: “normalised enrichment score” 2.41.
For `S1L`, “normalised enrichment score” read 1.67.
`S9C`: “normalised enrichment score” 1.62.
Under “normalised enrichment score”, `P4K` is recorded as 0.691.
For `S9E`, “normalised enrichment score” read 1.97.
`N6H`: “normalised enrichment score” 0.823.
For `L10D`, “normalised enrichment score” read 1.79.
For `D13Y`, “normalised enrichment score” read 2.19.
For `S9W`, “normalised enrichment score” read 1.93.

Study 4
Target: RING finger protein unkempt homolog, zinc fingers 1-6, GST-SBP tag (UNK, Homo sapiens, UniProt Q9C0B0, residues 30-357)
Sequence of UniProt Q9C0B0 (30-357, looked up): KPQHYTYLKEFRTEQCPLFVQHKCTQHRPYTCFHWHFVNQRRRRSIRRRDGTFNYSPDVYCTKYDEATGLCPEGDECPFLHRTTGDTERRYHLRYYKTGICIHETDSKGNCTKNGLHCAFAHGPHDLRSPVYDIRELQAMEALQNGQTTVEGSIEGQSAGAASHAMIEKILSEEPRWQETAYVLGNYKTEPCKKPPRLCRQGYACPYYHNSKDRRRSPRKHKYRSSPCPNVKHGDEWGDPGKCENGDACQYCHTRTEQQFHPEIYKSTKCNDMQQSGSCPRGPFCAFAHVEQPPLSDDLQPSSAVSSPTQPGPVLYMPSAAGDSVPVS
Technique: RNA Bind-n-Seq
Form: RNA
Matrix: in vitro
Tested at: not given
Notes: RNA with constant flanks, human and mouse sites, ends assumed
Relative to: input RNA pool
Direction: higher = stronger binding
With `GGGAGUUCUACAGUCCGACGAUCGUAUAUAUUUCCAGGCUGCAUCUUCAGCCUGAUAUGUACUUUGUAGUUGCAACAGCGCCCUAGGUGCCCUAUGGCCCACCAAGUUUGAGGAGGGUGGUGCUUUCCGGAUUGAGCCUGGGCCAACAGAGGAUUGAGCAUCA` the bound/input enrichment was 0.207 ratio.
For `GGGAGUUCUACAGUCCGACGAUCUGACUGAAAUAUUAAUAUUUAAAAUACUUCAUUCCUUAAUUCUCCCUCAAUUGCUUUACCCAUAGCCUAUUCAAUUCCUUUGUUUGGCGAACUCUGCAAAAUGUGUUACCCACUACUGAGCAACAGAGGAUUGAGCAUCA`, the bound/input enrichment was 1.7 ratio.
For `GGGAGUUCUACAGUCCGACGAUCGCCCAGGGUCGCCAUGUGGAAAUAUUUGAGCUCCUUAAACCUCCGUGUGGAGGCCUCGGCUUUAGUGUUGUUGGGCUCAGAAGUGAAAACAGGGGCGAGCUGGGGAUAUUUGUCCAGGAGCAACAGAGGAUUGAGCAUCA`, the bound/input enrichment was 0.432 ratio.
`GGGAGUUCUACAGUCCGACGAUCUAUAAUGUAUCUUAUGUAUGUGCUUUAUAUUGUUAUUUGUGUAUACAUUAAAAUAAUUCUGAAUUAUUUAAUCUGAUAUGUUGUAUUCUGUAUCUUGAAAUUUUUGUUUCCUUGAAACAUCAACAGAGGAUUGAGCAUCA` gave a bound/input enrichment of 0.205 ratio.
For `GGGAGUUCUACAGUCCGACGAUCUUCGAACAGAAAAUGACAGAAACAGCUCAGAAAUUUCAAGAUAUUGAAGAAACUCAUCUCAUUCACAUAAAGGAAAUUAUAGGAUCCUUGUCAAAUGCUAUAAAGGAAAUUCAUUUGCAGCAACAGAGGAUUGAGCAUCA`, the bound/input enrichment was 0.232 ratio.
`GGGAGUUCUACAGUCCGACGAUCUCCAAAAAGAUUCAGCAGAUCCAUGUGGUUUCCCAGUUUAAGAUUCUGGUCAGCUUGUUAGAAAAUAACAUUUAUGUCCAUGACCUAUUGACAUUUCAACAAAUCACUACGGUUUCAAAGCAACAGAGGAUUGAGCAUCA` has a bound/input enrichment of 0.153 ratio.
`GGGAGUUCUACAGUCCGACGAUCGUUAUUUUAAUAAUCCCUUUAAAUUUUAUCUGUUGCUGUUACCUCUUGAAAUAUGAUUUAUUUAGAUUGCUAAUCCCACUCAUUCAGGAAAUGCCAAGAGGUAUUCCUUGGGGAAAUGGUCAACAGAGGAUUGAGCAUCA` gave a bound/input enrichment of 2.44 ratio.
For `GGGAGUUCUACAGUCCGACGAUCUCUCCCGUGUUACCAAUGUGUAUGGUCUCCUUCUCCCGAAAGUGUACUUAAUCUUUGCUUUCUUUGCACAAUGUCUUUGGUUGCAAGUCAUAAGCCUGAGGCAAAUAAAAUUCCAGUAAUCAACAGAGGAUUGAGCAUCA`, the bound/input enrichment was 0.395 ratio.

Excerpt of the above (study 1):
`D65L`: “relative binding score” 32.1%.
`D75V` — result for “relative binding score”: 85.4%.
`D95F` — result for “relative binding score”: -2.94%.
Under “relative binding score”, `T17R` is recorded as 43.6%.
For `V121L`, “relative binding score” read 47.5%.
`F5E` — result for “relative binding score”: 56.5%.
Under “relative binding score”, `R49Y` is recorded as 34.1%.
Under “relative binding score”, `V143L` is recorded as 6.11%.
`P50C` — result for “relative binding score”: -8.94%.
`T6G`: “relative binding score” 77.1%.
